# Assay results gathered from unrelated publications.
# Protocols differ between the studies behind these lines. Numbers after ± are the reported error.
# UniProt P49327, sequence (whole entry, looked up): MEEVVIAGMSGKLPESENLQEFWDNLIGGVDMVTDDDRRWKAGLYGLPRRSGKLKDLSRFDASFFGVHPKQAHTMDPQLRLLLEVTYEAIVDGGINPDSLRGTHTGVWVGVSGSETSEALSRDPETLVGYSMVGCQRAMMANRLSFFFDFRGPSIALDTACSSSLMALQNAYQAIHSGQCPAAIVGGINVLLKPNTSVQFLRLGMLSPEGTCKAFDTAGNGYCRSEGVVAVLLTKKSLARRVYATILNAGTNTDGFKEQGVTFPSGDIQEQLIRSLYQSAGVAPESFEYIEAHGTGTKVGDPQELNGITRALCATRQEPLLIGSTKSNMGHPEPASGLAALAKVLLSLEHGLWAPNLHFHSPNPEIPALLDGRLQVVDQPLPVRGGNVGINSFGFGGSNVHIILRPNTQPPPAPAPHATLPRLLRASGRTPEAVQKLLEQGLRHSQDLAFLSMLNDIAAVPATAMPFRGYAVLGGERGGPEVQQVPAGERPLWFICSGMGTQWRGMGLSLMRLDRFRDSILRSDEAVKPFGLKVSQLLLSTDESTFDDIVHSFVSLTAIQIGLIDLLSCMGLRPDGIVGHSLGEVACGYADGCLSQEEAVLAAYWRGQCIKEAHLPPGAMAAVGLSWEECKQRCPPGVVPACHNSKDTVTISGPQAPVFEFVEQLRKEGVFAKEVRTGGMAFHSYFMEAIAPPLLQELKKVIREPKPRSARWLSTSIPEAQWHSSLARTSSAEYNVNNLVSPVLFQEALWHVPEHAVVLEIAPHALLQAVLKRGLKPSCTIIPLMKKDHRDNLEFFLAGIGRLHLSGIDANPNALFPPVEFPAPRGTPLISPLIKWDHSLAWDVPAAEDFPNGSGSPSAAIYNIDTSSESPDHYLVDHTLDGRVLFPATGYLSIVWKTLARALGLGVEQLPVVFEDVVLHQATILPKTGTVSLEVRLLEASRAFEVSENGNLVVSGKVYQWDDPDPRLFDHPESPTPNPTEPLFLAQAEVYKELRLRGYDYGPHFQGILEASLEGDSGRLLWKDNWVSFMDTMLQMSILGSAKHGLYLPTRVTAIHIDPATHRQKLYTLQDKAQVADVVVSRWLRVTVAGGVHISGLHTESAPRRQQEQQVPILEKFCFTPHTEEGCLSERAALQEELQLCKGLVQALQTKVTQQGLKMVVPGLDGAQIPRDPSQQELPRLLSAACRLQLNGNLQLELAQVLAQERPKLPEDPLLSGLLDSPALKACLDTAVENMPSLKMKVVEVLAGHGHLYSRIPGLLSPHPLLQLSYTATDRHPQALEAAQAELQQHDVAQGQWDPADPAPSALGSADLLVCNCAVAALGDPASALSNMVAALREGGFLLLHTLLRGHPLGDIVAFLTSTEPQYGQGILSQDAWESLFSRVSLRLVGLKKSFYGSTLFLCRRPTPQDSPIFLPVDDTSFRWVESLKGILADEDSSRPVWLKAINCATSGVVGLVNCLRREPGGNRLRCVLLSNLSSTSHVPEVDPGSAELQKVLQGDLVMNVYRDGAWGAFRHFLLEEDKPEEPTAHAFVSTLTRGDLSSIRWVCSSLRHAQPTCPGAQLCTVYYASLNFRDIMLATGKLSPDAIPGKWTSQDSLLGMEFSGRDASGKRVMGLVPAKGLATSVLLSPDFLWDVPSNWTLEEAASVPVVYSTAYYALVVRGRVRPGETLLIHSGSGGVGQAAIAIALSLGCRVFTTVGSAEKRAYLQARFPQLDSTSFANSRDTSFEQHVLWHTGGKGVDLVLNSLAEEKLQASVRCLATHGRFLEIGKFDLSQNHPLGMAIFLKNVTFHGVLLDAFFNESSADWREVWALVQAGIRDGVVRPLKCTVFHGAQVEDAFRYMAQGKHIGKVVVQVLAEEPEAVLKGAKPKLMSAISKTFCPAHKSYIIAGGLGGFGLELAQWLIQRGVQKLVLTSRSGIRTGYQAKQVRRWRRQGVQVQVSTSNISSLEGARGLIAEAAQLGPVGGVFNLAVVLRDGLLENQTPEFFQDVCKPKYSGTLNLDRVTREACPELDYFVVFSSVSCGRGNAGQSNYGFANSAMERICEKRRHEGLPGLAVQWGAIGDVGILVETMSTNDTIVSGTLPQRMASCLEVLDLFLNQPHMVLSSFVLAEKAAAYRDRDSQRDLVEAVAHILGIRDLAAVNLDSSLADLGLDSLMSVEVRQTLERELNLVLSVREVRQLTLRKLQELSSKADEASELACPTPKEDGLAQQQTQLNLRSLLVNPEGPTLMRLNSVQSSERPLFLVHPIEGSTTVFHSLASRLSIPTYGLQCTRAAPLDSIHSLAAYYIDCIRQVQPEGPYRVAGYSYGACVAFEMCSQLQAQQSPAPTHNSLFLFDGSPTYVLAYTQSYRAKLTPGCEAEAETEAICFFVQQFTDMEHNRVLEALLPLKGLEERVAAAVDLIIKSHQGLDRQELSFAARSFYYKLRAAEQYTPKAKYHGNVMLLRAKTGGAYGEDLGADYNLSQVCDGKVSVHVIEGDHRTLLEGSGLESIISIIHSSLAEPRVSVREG
SMILES,tested on,test,test system,conditions,scale,measurement,result
Cc1cc(C)c(CNC(=O)c2cc(Cl)c3c(c2C)O[C@@](C)([C@H]2CC[C@H](N(C)C)CC2)O3)c(=O)[nH]1,,,"human, relapsed/refractory NHL","concentration not given, all TEAEs, grade 5",,Hypophosphataemia incidence,0%
O=[N+]([O-])c1ccc2c(c1)S(=O)(=O)C=C2,,,"male C57BL/6 mice, blood","intraperitoneal, 10 mg/kg, day 8, group average",,mean corpuscular haemoglobin concentration,288 g/L
O=C(Nc1ccc(Cl)cc1)Nc1ccc(Cl)c(Cl)c1,,ultrafiltration,cow milk whey,200 nM nominal in whole milk,,final permeate concentration,0.35 nM
O=C1Nc2cc3[nH]nc(-c4ccncc4)c3cc2CN1Cc1ccccc1,,CTCAE v4.03,advanced solid tumour patients,"intravenous, 0.45 mg/kg, schedules 1/2",,patients with ≥1 TEAE,100%
O=c1cc(-c2ccc(O)c(O)c2)oc2cc(O)cc(O)c12,,,"Sprague-Dawley rat, male, obese, faeces","oral, 100 mg/kg neohesperidin, 36-48 h",,faecal excretion,18.3 ± 12.2 ng
C[C@H]1CN(c2n[nH]c3nc(N[C@H]4CC[C@H](NS(=O)(=O)CCC(F)(F)F)CC4)ncc23)CCO1,"Fatty acid synthase (FASN, Homo sapiens, UniProt P49327)","inhibitor, Kinobeads competition profiling",,0.8 µM,relative to: vehicle,relative abundance,1.23
CC(=O)c1c(C)c2cnc(Nc3ccc(C4CCN(CCS(C)(=O)=O)CC4)cn3)nc2n(C2CCCC2)c1=O,,,"human, plasma","oral, dose not given, steady state, continuous dosing, range over doses",,t1/2,4.04 to 13.3 h
COc1cc2c(Oc3ccc4[nH]c(C)cc4c3F)ccnc2cc1OCC1(N)CC1,,,paediatric recurrent refractory sarcoma,8 mg,,grade 1 or 2 Hematochezia,0%
CCC(C)(C)c1cc(-n2nc3ccccc3n2)c(O)c(C(C)(C)CC)c1,,,reconstructed human epidermis EpiSkin,sunscreen extract,,time to 80% permeation,1 h
Cc1cccc(N2CCN(C(=O)C3CCN(Cc4nc(-c5ccc(Cl)cc5)oc4C)CC3)CC2)c1C,Vero-E6,CellTiter-Glo ATP,,"concentration not given, 72 h, retest 8-point duplicates","relative to: DMSO 0%, hyamine -100%, more negative, more toxic",cytotoxicity efficacy,0%
O=C1c2c(O)c(=O)ccn2N([C@@H]2c3ccccc3SCc3c2ccc(F)c3F)[C@@H]2COCCN12,,,"BALB/c mice, plasma","oral, 0.5 mg/kg baloxavir marboxil, 1 h",,plasma concentration,5.05 ng/mL
C=CCNc1c(O)cc2c(O)c1C[C@@H](C)C[C@H](OC)[C@H](O)[C@@H](C)/C=C(\C)[C@H](OC(N)=O)[C@@H](OC)/C=C\C=C(/C)C(=O)N2,,,"unresectable or metastatic STS, GIST, other","intravenous, 500 mg/m^2",,patients with back pain TEAE,0%
CC(C)[C@@H]1NC(=O)CNC(=O)[C@H](CC(N)=O)NC(=O)[C@H](CCCNC(=N)N)NC(=O)[C@H](Cc2ccc(O)cc2)NC(=O)[C@H](C(C)C)NC(=O)[C@@H](NC(=O)[C@@H](NC(=O)[C@H](CC(N)=O)NC(=O)[C@H](Cc2c[nH]c3ccccc23)NC(=O)[C@H](C)NC(=O)[C@H](Cc2ccccc2)NC(=O)CN)C(C)C)CSSC[C@@H](C(=O)N[C@@H](Cc2cnc[nH]2)C(=O)N[C@@H](CCCNC(=N)N)C(=O)N[C@@H](CCCNC(=N)N)C(=O)N[C@@H](C)C(=O)N[C@@H](CC(N)=O)C(N)=O)NC(=O)[C@H](C(C)C)NC(=O)[C@H](CCCNC(=N)N)NC1=O,,,"ICR mice, blood","intraperitoneal, 10 mg/kg, day 5",,mean platelet volume,6.33 ± 0.27 fL
O=c1nc(NO)ccn1[C@@H]1O[C@H](CO)[C@@H](O)[C@H]1O,,,rat maternal placenta dialysate,"1000 ng/mL, 6 h, room temperature, high concentration, with: molnupiravir 250 ng/mL",,bench-top stability,96.9 ± 6.63%
O=C1CN=C(c2ccccc2)c2cc(/N=N/c3ccc(S(=O)(=O)O)cc3)ccc2N1,,HPLC,DMSO,"50 µM, with: 455 nm irradiation",,trans isomer at photostationary state,82%
O=C(Nc1ccccc1)C1CCN(C(=O)Oc2cccnc2)CC1,,adverse event reporting,healthy women,"oral, 100 mg, 9 days",,subjects with cold sweat,7.7%
Cc1nc([C@@](C)(CC2CC2)NC(=O)c2cc(OCC(F)(F)F)c(C3CC3)cn2)no1,,,C57BL/6 mice,"intravenous, 0.5 mg/kg",,half-life,4.15 h
C[C@@H](NC(=O)N1C(=O)[C@H](Cc2ccnc(N)c2)[C@H]1C(=O)O)C1CCCCC1,,,healthy Chinese adult volunteers,"continuous intravenous infusion, dose not given, 5.0 days, CTCAE 5.0, all doses",,elevated creatine phosphokinase,5%
C[C@]1(CO)Cc2ncn(-c3ccc(C#N)c(Cl)c3)c2C(=O)O1,,,human,"40 mg, Japanese multiple ascending dose",,drug-related ALT increase incidence,2.8%
CC(C)C[C@H](NC(=O)[C@H](CCCCN)NC(=O)OCC1c2ccccc2-c2ccccc21)C(=O)N[C@H](C(=O)N[C@@H](Cc1ccccc1)C(=O)N[C@@H](Cc1ccccc1)C(=O)N[C@@H](CCCCN)C(=O)NCC(=O)N[C@@H](Cc1ccccc1)C(=O)N[C@@H](C)C(=O)N[C@@H](Cc1c[nH]c2ccccc12)C(=O)N[C@@H](CC(N)=O)C(=O)N[C@H](C(=O)N[C@H]1CSSC[C@@H](C(=O)N[C@@H](Cc2c[nH]cn2)C(=O)N[C@@H](CCCNC(=N)N)C(=O)N[C@@H](CCCNC(=N)N)C(=O)N[C@@H](C)C(=O)N[C@@H](CC(N)=O)C(N)=O)NC(=O)[C@H](C(C)C)NC(=O)[C@H](CCCNC(=N)N)NC(=O)[C@H](C(C)C)NC(=O)CNC(=O)[C@H](CC(N)=O)NC(=O)[C@H](CCCNC(=N)N)NC(=O)[C@H](Cc2ccc(O)cc2)NC(=O)[C@H](C(C)C)NC1=O)C(C)C)C(C)C,,,"ICR mouse, blood","intramammary, 10 mg/kg, day 5, 3 d dosing",,basophils,1.57 ± 0.18%
C=CC(=O)Nc1cc(Nc2nccc(Nc3cc(Cl)c(F)cc3C(C)(C)O)n2)c(OC)cc1N1CC[C@@H](N(C)C)C1,,treatment-emergent adverse events,human,"oral, 400 mg, phase I clinical trial",,incidence of vomiting,65%
Cn1c(-c2ccc(C(N)=O)cc2F)nnc1C(C)(C)Oc1c(F)cc(Cl)cc1F,,,human,"oral, 60 mg, single ascending dose",,subjects with any TEAE,33.3%
CC1(C)C(/C=C(\Cl)C(F)(F)F)C1C(=O)OC(C#N)c1cccc(Oc2ccccc2)c1 (stereo not drawn),,item: CYP3A5,"human, age 1 year",,,enzyme contribution to clearance,0.05%
CO[C@H]1C[C@@H]2CC[C@@H](C)[C@@](O)(O2)C(=O)C(=O)N2CCCC[C@H]2C(=O)O[C@H]([C@H](C)C[C@@H]2CC[C@@H](OC(=O)NCCOCCOCCOCCOCCOCCOCCOCCOCCC(=O)N3CCc4cc(Cn5nc(-c6ccc7oc(N)nc7c6)c6c(N)ncnc65)ccc4C3)[C@H](OC)C2)C[C@@H](O)[C@H](C)/C=C(\C)[C@@H](O)[C@@H](OC)C(=O)[C@H](C)C[C@H](C)/C=C/C=C/C=C/1C,,phase 1 dose escalation,advanced solid tumour patients,"intravenous, 10 mg weekly, grade ≥3",,any SAE incidence,25%
CN1CCN(S(=O)(=O)c2cc([N+](=O)[O-])ccc2N(CCOS(C)(=O)=O)CCOS(C)(=O)=O)CC1,,,"naive NOD/SCID mice, pooled blood","intraperitoneal, 25 mg/kg, week 4",,sodium,158 mmol/L
CCCCN1CCC(COC(=O)c2ccc(N)c(O[11CH3])c2)CC1,,PET,"rhesus monkey, striatum",,,peak uptake,4 to 7 SUV
C=CC(=O)N1CC[C@H](n2nc(C#Cc3cc(OC)cc(OC)c3)c3c(N)ncnc32)C1,,,human patients,"oral, dose not given, QD regimen, adverse drug reaction, with: any phosphate binder",,"hyponatremia incidence, grade ≥3",5%
CN1CC[C@@H](c2c(O)cc(O)c3c(=O)cc(-c4ccc(C(F)(F)F)cc4Cl)oc23)[C@@H]1CO,,item: Chills,B-cell malignancies or AML,"oral, 100 mg, continuous dosing",,patients with adverse event,0%
CC(C)(Nc1nc(N2CCNCC2)nc2ccccc12)c1ccccc1,Vero-E6,CellTiter-Glo ATP,,"72 h, retest 8-point duplicates","relative to: DMSO 0%, hyamine -100%, more negative, more toxic",maximum response,-4.44%
O=c1ccc2ncc(=O)n3c2n1C[C@H]3CN1CCC(NCc2cc3c(cn2)OCCC3)CC1,,item: ventricular extrasystoles,healthy human participants,"oral, 1500 mg, with: rifampicin 600 mg",,adverse event incidence,6%

# Repeated from above:
SMILES,tested on,test,test system,conditions,scale,measurement,result
CC(C)[C@@H]1NC(=O)CNC(=O)[C@H](CC(N)=O)NC(=O)[C@H](CCCNC(=N)N)NC(=O)[C@H](Cc2ccc(O)cc2)NC(=O)[C@H](C(C)C)NC(=O)[C@@H](NC(=O)[C@@H](NC(=O)[C@H](CC(N)=O)NC(=O)[C@H](Cc2c[nH]c3ccccc23)NC(=O)[C@H](C)NC(=O)[C@H](Cc2ccccc2)NC(=O)CN)C(C)C)CSSC[C@@H](C(=O)N[C@@H](Cc2cnc[nH]2)C(=O)N[C@@H](CCCNC(=N)N)C(=O)N[C@@H](CCCNC(=N)N)C(=O)N[C@@H](C)C(=O)N[C@@H](CC(N)=O)C(N)=O)NC(=O)[C@H](C(C)C)NC(=O)[C@H](CCCNC(=N)N)NC1=O,,,"ICR mice, blood","intraperitoneal, 10 mg/kg, day 5",,mean platelet volume,6.33 ± 0.27 fL
O=C1c2c(O)c(=O)ccn2N([C@@H]2c3ccccc3SCc3c2ccc(F)c3F)[C@@H]2COCCN12,,,"BALB/c mice, plasma","oral, 0.5 mg/kg baloxavir marboxil, 1 h",,plasma concentration,5.05 ng/mL
Cn1c(-c2ccc(C(N)=O)cc2F)nnc1C(C)(C)Oc1c(F)cc(Cl)cc1F,,,human,"oral, 60 mg, single ascending dose",,subjects with any TEAE,33.3%
O=c1cc(-c2ccc(O)c(O)c2)oc2cc(O)cc(O)c12,,,"Sprague-Dawley rat, male, obese, faeces","oral, 100 mg/kg neohesperidin, 36-48 h",,faecal excretion,18.3 ± 12.2 ng
O=C1Nc2cc3[nH]nc(-c4ccncc4)c3cc2CN1Cc1ccccc1,,CTCAE v4.03,advanced solid tumour patients,"intravenous, 0.45 mg/kg, schedules 1/2",,patients with ≥1 TEAE,100%
